# Measurements from different studies.
# Numbered parts are unrelated; each lists some results of a single study. Several values in a cell are separate wells, animals, samples, runs or records.
# Sequence of UniProt O75582 (whole entry, looked up): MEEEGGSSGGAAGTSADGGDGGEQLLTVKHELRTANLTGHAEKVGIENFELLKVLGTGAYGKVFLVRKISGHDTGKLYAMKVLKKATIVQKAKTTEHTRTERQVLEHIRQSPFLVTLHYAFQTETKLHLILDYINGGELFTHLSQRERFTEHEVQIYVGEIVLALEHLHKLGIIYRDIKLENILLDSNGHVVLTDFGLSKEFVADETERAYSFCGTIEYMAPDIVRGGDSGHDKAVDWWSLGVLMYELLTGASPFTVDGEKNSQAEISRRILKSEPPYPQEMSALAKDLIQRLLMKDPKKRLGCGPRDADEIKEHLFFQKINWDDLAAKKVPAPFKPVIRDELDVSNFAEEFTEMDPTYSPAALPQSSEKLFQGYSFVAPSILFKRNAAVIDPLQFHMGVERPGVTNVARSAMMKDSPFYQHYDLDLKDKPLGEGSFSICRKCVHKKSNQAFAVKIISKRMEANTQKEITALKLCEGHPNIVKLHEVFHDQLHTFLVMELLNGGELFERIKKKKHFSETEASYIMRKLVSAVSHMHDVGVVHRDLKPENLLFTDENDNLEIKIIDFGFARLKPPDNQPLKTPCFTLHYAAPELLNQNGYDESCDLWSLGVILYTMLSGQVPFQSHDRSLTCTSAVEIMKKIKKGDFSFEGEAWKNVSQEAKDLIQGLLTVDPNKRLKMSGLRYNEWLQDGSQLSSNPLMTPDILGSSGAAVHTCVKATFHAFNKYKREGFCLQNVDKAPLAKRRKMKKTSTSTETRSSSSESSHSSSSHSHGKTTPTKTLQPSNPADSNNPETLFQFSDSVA
# Sequence of UniProt P29323 (whole entry, looked up): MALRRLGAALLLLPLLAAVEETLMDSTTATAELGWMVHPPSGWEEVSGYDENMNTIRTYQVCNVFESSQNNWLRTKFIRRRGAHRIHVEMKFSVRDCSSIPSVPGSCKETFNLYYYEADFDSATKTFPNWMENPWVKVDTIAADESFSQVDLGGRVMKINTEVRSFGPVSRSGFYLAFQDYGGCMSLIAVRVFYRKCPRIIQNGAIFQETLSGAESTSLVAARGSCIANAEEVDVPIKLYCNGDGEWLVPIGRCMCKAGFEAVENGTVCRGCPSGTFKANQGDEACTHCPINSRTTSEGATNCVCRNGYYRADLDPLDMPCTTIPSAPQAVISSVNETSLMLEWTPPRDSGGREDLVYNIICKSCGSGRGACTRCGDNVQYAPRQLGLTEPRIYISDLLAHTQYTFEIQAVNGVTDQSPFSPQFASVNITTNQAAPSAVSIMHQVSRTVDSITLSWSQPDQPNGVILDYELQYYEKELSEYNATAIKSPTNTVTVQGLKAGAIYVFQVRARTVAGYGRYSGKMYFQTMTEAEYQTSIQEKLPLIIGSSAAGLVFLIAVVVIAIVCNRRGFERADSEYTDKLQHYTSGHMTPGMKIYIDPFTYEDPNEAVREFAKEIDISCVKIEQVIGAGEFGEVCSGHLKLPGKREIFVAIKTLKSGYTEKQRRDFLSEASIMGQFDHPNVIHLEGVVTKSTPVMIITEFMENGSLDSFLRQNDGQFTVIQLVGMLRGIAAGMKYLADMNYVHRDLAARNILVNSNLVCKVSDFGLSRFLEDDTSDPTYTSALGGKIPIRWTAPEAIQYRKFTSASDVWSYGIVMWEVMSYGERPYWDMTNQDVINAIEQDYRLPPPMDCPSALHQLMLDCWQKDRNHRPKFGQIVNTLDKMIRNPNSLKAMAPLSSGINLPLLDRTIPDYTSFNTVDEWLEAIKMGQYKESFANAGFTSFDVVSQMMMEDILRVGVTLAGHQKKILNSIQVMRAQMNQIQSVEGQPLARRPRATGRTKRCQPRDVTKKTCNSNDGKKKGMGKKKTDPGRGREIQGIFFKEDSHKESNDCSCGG
# Sequence of UniProt O75914 (whole entry, looked up): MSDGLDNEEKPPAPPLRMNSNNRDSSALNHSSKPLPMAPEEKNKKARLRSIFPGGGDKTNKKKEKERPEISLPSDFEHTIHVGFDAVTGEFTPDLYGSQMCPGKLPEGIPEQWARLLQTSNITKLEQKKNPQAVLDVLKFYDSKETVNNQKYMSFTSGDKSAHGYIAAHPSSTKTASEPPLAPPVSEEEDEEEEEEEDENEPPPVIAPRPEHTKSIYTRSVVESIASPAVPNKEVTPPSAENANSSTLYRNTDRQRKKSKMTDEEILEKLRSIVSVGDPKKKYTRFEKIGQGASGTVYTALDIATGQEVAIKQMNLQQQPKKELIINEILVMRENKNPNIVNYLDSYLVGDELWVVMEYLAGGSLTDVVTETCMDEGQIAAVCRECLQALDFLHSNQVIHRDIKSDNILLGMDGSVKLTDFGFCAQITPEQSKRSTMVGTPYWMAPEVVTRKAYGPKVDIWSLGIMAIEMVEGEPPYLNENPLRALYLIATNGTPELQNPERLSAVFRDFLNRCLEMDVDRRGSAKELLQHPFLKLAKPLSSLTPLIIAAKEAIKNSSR
# Sequence of UniProt O15075 (whole entry, looked up): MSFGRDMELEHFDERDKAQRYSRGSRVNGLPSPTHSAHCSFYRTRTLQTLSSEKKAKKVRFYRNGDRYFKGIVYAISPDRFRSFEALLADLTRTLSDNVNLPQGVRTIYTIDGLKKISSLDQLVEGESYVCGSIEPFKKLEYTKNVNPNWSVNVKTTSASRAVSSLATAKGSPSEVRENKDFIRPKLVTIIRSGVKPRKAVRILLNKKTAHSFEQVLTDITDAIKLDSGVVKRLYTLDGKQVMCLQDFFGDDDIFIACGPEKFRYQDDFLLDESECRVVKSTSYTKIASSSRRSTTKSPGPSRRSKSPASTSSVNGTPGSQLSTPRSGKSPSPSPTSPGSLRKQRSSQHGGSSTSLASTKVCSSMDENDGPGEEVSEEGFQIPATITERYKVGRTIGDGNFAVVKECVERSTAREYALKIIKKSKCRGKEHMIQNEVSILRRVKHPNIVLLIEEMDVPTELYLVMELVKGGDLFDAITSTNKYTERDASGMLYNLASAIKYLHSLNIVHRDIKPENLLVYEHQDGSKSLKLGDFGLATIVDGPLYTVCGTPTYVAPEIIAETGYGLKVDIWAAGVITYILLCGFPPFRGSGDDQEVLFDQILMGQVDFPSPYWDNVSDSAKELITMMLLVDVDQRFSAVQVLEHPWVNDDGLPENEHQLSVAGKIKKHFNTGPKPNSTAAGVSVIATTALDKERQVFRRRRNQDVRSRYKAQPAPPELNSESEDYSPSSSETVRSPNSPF
# Sequence of UniProt O95747 (whole entry, looked up): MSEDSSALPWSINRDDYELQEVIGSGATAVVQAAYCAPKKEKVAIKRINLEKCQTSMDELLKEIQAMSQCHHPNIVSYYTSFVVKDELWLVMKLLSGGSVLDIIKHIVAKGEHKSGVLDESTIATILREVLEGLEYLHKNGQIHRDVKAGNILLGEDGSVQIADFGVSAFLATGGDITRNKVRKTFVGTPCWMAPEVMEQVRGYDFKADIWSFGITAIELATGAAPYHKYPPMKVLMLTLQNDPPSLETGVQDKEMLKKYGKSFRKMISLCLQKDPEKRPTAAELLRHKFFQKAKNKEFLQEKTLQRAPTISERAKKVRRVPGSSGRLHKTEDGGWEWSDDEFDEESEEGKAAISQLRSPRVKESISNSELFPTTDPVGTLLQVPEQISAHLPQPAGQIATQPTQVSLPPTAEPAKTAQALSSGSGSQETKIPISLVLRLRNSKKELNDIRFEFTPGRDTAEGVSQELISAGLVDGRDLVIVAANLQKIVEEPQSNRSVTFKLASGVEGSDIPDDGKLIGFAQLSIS

# Study 1
# Structure (SMILES): C=CCc1ccc(O)c(-c2ccc(O)c(CC=C)c2)c1
# ANO1 del476-501: Anoctamin-1 (ANO1, Homo sapiens, UniProt Q5XXA6, del476-501)
# Sequence of UniProt Q5XXA6 (whole entry, unmodified, looked up): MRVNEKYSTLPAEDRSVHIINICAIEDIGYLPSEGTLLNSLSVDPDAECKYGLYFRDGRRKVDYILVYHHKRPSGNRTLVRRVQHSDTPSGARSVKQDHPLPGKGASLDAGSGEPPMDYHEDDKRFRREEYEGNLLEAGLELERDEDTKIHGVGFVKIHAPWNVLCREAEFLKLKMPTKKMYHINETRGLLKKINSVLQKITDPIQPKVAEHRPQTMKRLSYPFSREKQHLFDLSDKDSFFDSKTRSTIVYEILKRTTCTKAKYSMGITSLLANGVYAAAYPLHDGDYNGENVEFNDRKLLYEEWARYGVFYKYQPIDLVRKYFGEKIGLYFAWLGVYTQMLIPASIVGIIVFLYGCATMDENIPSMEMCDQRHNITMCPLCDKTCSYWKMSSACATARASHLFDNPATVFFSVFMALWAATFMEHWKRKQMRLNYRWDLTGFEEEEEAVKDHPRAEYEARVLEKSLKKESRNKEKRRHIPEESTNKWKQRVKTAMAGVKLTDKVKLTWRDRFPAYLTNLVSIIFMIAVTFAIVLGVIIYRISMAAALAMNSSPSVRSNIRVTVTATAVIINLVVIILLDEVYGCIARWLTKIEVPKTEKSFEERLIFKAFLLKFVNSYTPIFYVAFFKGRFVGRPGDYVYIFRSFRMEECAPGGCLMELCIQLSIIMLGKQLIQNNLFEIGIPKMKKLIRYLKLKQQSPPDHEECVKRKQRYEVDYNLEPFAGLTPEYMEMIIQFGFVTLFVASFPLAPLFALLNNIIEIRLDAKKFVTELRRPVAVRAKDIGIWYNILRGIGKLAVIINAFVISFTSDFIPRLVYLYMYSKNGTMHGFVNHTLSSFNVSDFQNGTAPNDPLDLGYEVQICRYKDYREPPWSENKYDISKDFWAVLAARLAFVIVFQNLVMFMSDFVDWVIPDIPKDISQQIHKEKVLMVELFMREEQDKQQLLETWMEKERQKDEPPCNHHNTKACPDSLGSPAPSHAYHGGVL
target,assay,conditions,normalized current
ANO1 del476-501,"chloride current, whole-cell voltage clamp","30 µM, wild type, concentration-response at 100 mV, with: 4 µM Ca2+",0.0713
ANO1 del476-501,"chloride current, whole-cell voltage clamp","10 µM, wild type, concentration-response at -20 mV, with: 4 µM Ca2+",-0.0531
"Anoctamin-1 (ANO1, Homo sapiens, UniProt Q5XXA6, del476-501/K629A)","chloride current, inside-out patch clamp","10 µM, membrane voltage 20 mV",0.0945
"Anoctamin-1 (ANO1, Homo sapiens, UniProt Q5XXA6, del476-501/E649A)","ion current, inside-out patch clamp","10 µM, E623A mutant at 120 mV",1
ANO1 del476-501,"chloride current, whole-cell voltage clamp","1 µM, wild type, concentration-response at -100 mV, with: 4 µM Ca2+",-0.742
"Anoctamin-1 (ANO1, Homo sapiens, UniProt Q5XXA6, del476-501/K430L)","chloride current, inhibitor, whole-cell voltage clamp","concentration not given, K430L mutant",0.406 and 0.367 and 0.349 and 0.447 and 0.396 and 0.443

# Study 2
# Cell line: HaCaT
# Concentration: 100 µM
# Time: 60 h
Structure (SMILES),viability
O=C(Nc1cccc2c(=O)cc(-c3nnn[nH]3)oc12)c1ccc(OCCCCc2ccccc2)cc1,78.5%
Cc1cc(NS(=O)(=O)c2ccc(N)cc2)nc(C)n1,140%
c1ccc(-c2ccc(C(c3ccccc3)n3ccnc3)cc2)cc1 (stereo not drawn),14.8%
COc1cc([C@@H]2c3cc4c(cc3[C@@H](O[C@@H]3O[C@@H]5CO[C@@H](c6cccs6)O[C@H]5[C@H](O)[C@H]3O)[C@H]3COC(=O)[C@H]23)OCO4)cc(OC)c1O,16.5%
COc1ccc2cc1Oc1ccc(cc1)C[C@H]1c3cc(c(OC)cc3CCN1C)Oc1c(OC)c(OC)cc3c1[C@H](C2)N(C)CC3,14.2%
C[C@H](CS)C(=O)N1CCC[C@H]1C(=O)O,141%
CC[C@H](C)[C@H](N)C(=O)O,144%
C[C@]12CC[C@@H]3c4ccc(O)cc4C[C@@H](CCCCCCCCC[S+]([O-])CCCC(F)(F)C(F)(F)F)[C@H]3[C@@H]1CC[C@@H]2O (stereo partly drawn),150%

# Study 3
# Structure (SMILES): CS(=O)(=O)N1CCCC(NC(=O)[C@H](CCC2CCCCC2)NC(=O)c2ccc(CNc3ncnc4c3nnn4-c3ccccc3)cc2)C1 (stereo partly drawn)
# Technique: competition with immobilised ligand
# Concentration: 0.1 µM
target,effect on,remaining binding [%]
"NEK3 (Homo sapiens, UniProt P51956)",cell-free assay,100
"DCLK1 (Homo sapiens, UniProt O15075)",cell-free assay,100
"WNK1 (Homo sapiens, UniProt Q9H4A3)",cell-free assay,100
"AKT2 (Homo sapiens, UniProt P31751)",cell-free assay,100
"PIK3CA (Homo sapiens, UniProt P42336, Q546K)",cell-free assay,60
"MAP3K13 (Homo sapiens, UniProt O43283)",cell-free assay,100
"Ribosomal protein S6 kinase alpha-5, N-terminal kinase domain (RPS6KA5, Homo sapiens, UniProt O75582)",cell-free assay,81
"Tyrosine-protein kinase ABL1, phosphorylated (ABL1, Homo sapiens, UniProt P00519, F317L)",cell-free assay,91
"PRKAA1 (Homo sapiens, UniProt Q13131)",cell-free assay,100
"PRKD1 (Homo sapiens, UniProt Q15139)",cell-free assay,91
"EGFR (Homo sapiens, UniProt P00533, del746-750)",cell-free assay,100
"PAK1 (Homo sapiens, UniProt Q13153)",cell-free assay,100
"Ribosomal protein S6 kinase alpha-2, N-terminal kinase domain (RPS6KA2, Homo sapiens, UniProt Q15349)",cell-free assay,100
"TNK1 (Homo sapiens, UniProt Q13470)",cell-free assay,96
"Non-receptor tyrosine-protein kinase TYK2, JH1 (TYK2, Homo sapiens, UniProt P29597)",cell-free assay,99
"FLT3 (Homo sapiens, UniProt P36888, D835Y)",cell-free assay,93
"MYLK3 (Homo sapiens, UniProt Q32MK0)",cell-free assay,100
"EPHB2 (Homo sapiens, UniProt P29323)",cell-free assay,87
"Tyrosine-protein kinase ABL1, phosphorylated (ABL1, Homo sapiens, UniProt P00519, Q252H)",cell-free assay,95
"Myosin-IIIa (MYO3A, Homo sapiens, UniProt Q8NEV4)",binding,97
"BMPR1A (Homo sapiens, UniProt P36894)",binding,90

# Study 4
# Species: mouse
# Matrix: microsomes or S9
# Concentration: 2 µM
# Time: 0.5 h
Structure (SMILES),remaining compound [%]
CS(=O)(=O)N1C2CCC1CC(NC(=O)Cn1cc(-c3ccc(F)cc3)cn1)C2 (stereo not drawn),23.1
Cc1cc(Nc2cnccn2)cc(C2CCCN2C(=O)CC2(O)CCCCC2)n1 (stereo not drawn),8.03
CCN(CC)S(=O)(=O)c1ccc(NC(=O)c2cc(OC)c(OC)c(OC)c2)cc1,75.1
C[S+]([O-])c1sc(Br)c2c1C(=O)CC(C)(C)C2 (stereo not drawn),7.74
O=c1cc(-c2ccccc2)[nH]c2nc(CCc3ccccc3)nn12,87.6
CCC(=O)N1CCC(N(C(=O)COC)C2CCOCC2)CC1,91.5
CCOc1cccc2c(C)nc(Nc3nc(=O)c4c([nH]3)CCCC4)nc12,7.88
COC(=O)NC12CCCC(C1)c1ccc(=O)[nH]c1C2 (stereo not drawn),> 99.9

# Study 5
# SMILES: Cc1sc(C(=O)NC2COC2)cc1-n1cc(NC(=O)Nc2c(F)cccc2Cl)cn1
# Effect on: enzyme activity
# Concentration: 10 µM
# Relative to: untreated control
target,remaining activity
"PAK3 (Homo sapiens, UniProt O75914)",109%
"RPS6KA1 (Homo sapiens, UniProt Q15418)",91%
"PTK2 (Homo sapiens, UniProt Q05397)",103%
"MASTL (Homo sapiens, UniProt Q96GX5)",108%
"OXSR1 (Homo sapiens, UniProt O95747)",118%
